Measurements pooled from the literature.
Compare with care: the assays were run in different laboratories. “And” joins repeats or separate records; there may be more than shown. ± marks the error that the study gave.
B1: interferon gamma; sequence looked up; chain QDPYVKEAENLKKYFNAGHSDVADNGTLFLGILKNWKEESDRKIMQSQIVSFYFKLFKNFKDDQSIQKSVETIKEDMNVKFFNSNKKKRDDFEKLTNYSVTDLNVQRKAIHELIQVMAELSPAAKTGKRKRSQMLFRG
B2: recombinant human GDNF; sequence looked up; chain SPDKQMAVLPRRERNRQAAAANPENSRGKGRRGQRGKNRGCVLTAIHLNVTDLGLGYETKEELIFRYCSGSCDAAETTYDKILKNLSRNRRLVSDKVGQACCRPIAFDDDLSFLDDNLVYHILRKHSAKRCGCI

`B1 (interferon gamma)` — result for “urine albumin/creatinine ratio”: 14.5 and 16.7 and 15.1 and 15.4 and 28.6 and 13.6 and 15.7 and 11.9 (proteinuria inducer; FVB mice; dose not given, 48 h).
`difelikefalin`: “PGIC very much improved” 31.7% (Japanese haemodialysis patients with pruritus; intravenous, 1.0 µg/kg, 8 weeks).
`human HuR` — result for “log2 fold change”: -0.46 (CYB5R4 knockout human cells; PP4 interaction, 3xFLAG-PP4C IP-MS; concentration not given; baseline: CYB5R4 KO over parental).
`Pam2CSK4` gave a GFAP level of 1.12 and 0.414 (APP/PS1 mouse, cortex; local injection, dose not given, unit not given; baseline: injected over adjacent side).
For `protein-L-isoaspartate O-methyltransferase, human`, “log2 fold change” read 0.95 (CYB5R4 knockout human cells; PP4 interaction, 3xFLAG-PP4C IP-MS; concentration not given; baseline: CYB5R4 KO over parental).
`cotadutide` has a metabolite level of 1.38 ± 0.13 scaled intensity (metabolomics, measured: hepatic urea; ob/ob mice on AMLN diet, NASH model, liver; dose not given).
`semaglutide` — result for “serum HDL cholesterol”: 29 ± 1 mg/dL (Wistar rat, male, diet-induced obese, blood, fasted; subcutaneous, dose not given, after 10 weeks treatment).
`heparin sodium` gave an aPTT AUEC of 5270 h·s (human; intravenous infusion, 8 IU/kg/h, day 1 to 6).
The serum insulin of `liraglutide` is reported as 14.7 ± 2 ng/mL (Wistar rat, female, diet-induced obese, blood, fasted; subcutaneous, dose not given, after 4 weeks treatment).
`maraviroc` gave a fold change of 1.9 fold (ELISA, measured: sRAGE; mouse, non-infected, serum; dose not given; baseline: PBS control).
`B2 (recombinant human GDNF)` — result for “TH-immunoreactive cell count”: 431 ± 112 (CNN cell counting, measured: tyrosine hydroxylase; rat, 6-OHDA lesion model, substantia nigra pars compacta, lesioned side; 3 µg/24 h).
